Experimental data from different studies.
Each line is one published result; not all experiments were run side by side. ± marks the error that the study gave.
Lethal factor: Lethal factor (Bacillus anthracis, UniProt P15917)
OPG122: mRNA-decapping protein OPG122 (OPG122, Vaccinia virus, UniProt P04312)
bglR: Beta-glucuronidase (bglR, Clostridium perfringens, UniProt Q8XP19)
Replicase polyprotein 1a papain-like protease: Replicase polyprotein 1a, papain-like protease (Severe acute respiratory syndrome coronavirus 2, UniProt P0DTC1)
SCN9A: Sodium channel protein type 9 subunit alpha (SCN9A, Homo sapiens, UniProt Q15858)

Structure (SMILES)	target	test	test system	setting	IC50 [nM]
Cc1cc(O)cc(O)c1C(=O)O[C@@H]1CC2=C(COC(/C=C/CO)=C2)C(=O)[C@]1(C)O	Neuraminidase (NA, Influenza A virus, UniProt Q6DPL2)		influenza A virus H5N1		233000 ± 5700
CCC(C(=O)Nn1cccc1)n1c(SCc2ccc(F)cc2)nc2ncccc21 (stereo not shown)	Replicase polyprotein 1ab, papain-like protease (rep, Middle East respiratory syndrome-related coronavirus, UniProt K9N7C7)	enzyme activity, inhibitor			> 100000
O=C(O)c1ccccc1N=NC(=NNc1cc(S(=O)(=O)O)ccc1O)c1ccccc1	Ba71V-97, DNA complex (African swine fever virus, UniProt P42494)	enzyme activity, inhibitor			25100 ± 1300
O=C(O)C1=C[C@H](O)[C@@H](NC(=O)c2ccc(-c3ccccc3)cc2)[C@H]([C@H](O)[C@H](O)CO)O1	Sialidase (nanI, Clostridium perfringens, UniProt A0A0H2YQR1)	enzyme activity, inhibitor			26000
CC1=C(C(=O)O)C(c2ccccc2Br)NC(=S)N1 (stereo not shown)	Angiotensin-converting enzyme 2, with SARS-CoV-2 spike RBD (ACE2, Homo sapiens, UniProt Q9BYF1)	inhibitor			18.4 ± 1.05
CC[C@H](C)[C@@H]1NC(=O)[C@@H]2CSSC[C@H](NC(=O)[C@H](CCCNC(=N)N)NC(=O)[C@@H]3CSSC[C@H](NC1=O)C(=O)N[C@@H]([C@@H](C)O)C(=O)N[C@@H](CCCNC(=N)N)C(=O)NCC(=O)N[C@@H](Cc1ccccc1)C(=O)N3)C(=O)N[C@@H](CC(C)C)C(=O)N[C@H]1CSSC[C@H](NC(=O)[C@H](C(C)C)NC(=O)CNC(=O)[C@H](CCCNC(=N)N)NC(=O)[C@H](CCCNC(=N)N)NC1=O)C(=O)N[C@@H](CCCNC(=N)N)C(=O)N2	Lethal factor	enzyme activity, inhibitor			419 ± 32
CC(C)C[C@@H]1NC(=O)[C@H](CCCNC(=N)N)NC(=O)[C@@H]2CCCN2C(=O)[C@@H]2CSSC[C@H](NC(=O)CNC(=O)[C@@H]3CCCN3C(=O)[C@H](CCCCN)NC(=O)[C@H](CC(=O)O)NC(=O)[C@@H](NC(=O)CN)C(C)C)C(=O)N[C@@H](CCCNC(=N)N)C(=O)N[C@@H](Cc3ccc(O)cc3)C(=O)N[C@@H](CC(C)C)C(=O)N[C@@H](Cc3ccccc3)C(=O)NCC(=O)NCC(=O)N[C@H]3CSSC[C@H](NC(=O)CNC1=O)C(=O)N[C@@H](CCCCN)C(=O)NCC(=O)N[C@@H](CCCCN)C(=O)NCC(=O)N[C@@H](Cc1c[nH]cn1)C(=O)N[C@@H](CC(=O)O)C(=O)N[C@@H](Cc1ccc(O)cc1)C(=O)N[C@H](C(=O)N[C@@H](C)C(=O)N[C@@H](Cc1c[nH]c4ccccc14)C(=O)N[C@@H](CC(=O)O)C(=O)NCC(=O)N[C@H](C(=O)N[C@@H](Cc1ccccc1)C(=O)N[C@@H](CO)C(=O)N[C@@H](CC(=O)O)C(=O)O)[C@@H](C)O)CSSC[C@H](NC(=O)[C@H](CC(=O)O)NC(=O)[C@H](CC(=O)O)NC(=O)[C@H](CC(=O)O)NC(=O)[C@H](CO)NC(=O)[C@H](CCCCN)NC3=O)C(=O)N2	SCN3A (Homo sapiens, UniProt Q9NY46)	peak sodium current, inhibitor, automated patch clamp	HEK293	holding potential -80 mV, together with: 0.1 % BSA	1450
Nc1nc2c(ncn2C2CC(O)C(COP(=O)(O)OP(=O)(O)OP(=O)(O)O)O2)c(=O)[nH]1 (stereo not shown)	OPG122				27000
CN(C)c1nc(N2CCNCC2)c2sc3nc(-c4ccccc4)ccc3c2n1	bglR				71 ± 2
Cc1ccc(N)cc1C(=O)NC1(c2ccc3c4c(cccc24)CC3)CC1	Replicase polyprotein 1a papain-like protease	cell-free assay			143
CC[C@H](C)[C@H](NC(=O)[C@H](CCCCN)NC(=O)[C@H](Cc1ccccc1)NC(=O)[C@H](CC(=O)O)NC(=O)[C@@H](NC(=O)[C@H](CC(N)=O)NC(=O)[C@@H](N)CO)[C@@H](C)CC)C(=O)N[C@@H](CCCCN)C(=O)N[C@@H](CCCCN)C(=O)O	HLA class I histocompatibility antigen, A alpha chain, allele A*29:02 (Homo sapiens, UniProt P04439)	biochemical			> 10000
Nc1nc2c(ncn2C2OC(COP(=O)(O)OP(=O)(O)OP(=O)(O)O)C(O)C2O)c(=O)[nH]1 (stereo not shown)	OPG122				22000
CCC(CC)O[C@@H]1C=C(C(=O)O)C[C@H](NCc2ccc(N3CC[C@@H](F)C3)cc2)[C@H]1NC(C)=O	Neuraminidase (NA, Influenza A virus, UniProt P03468)	enzyme activity, inhibitor			370
CC(C)C[C@@H]1NC(=O)[C@H](CCCCN)NC(=O)[C@@H]2CSSC[C@H](N)C(=O)N[C@@H](CC(C)C)C(=O)NCC(=O)N[C@@H](Cc3ccccc3)C(=O)NCC(=O)N[C@@H](CCC(=O)O)C(=O)N[C@@H](CCCCN)C(=O)N[C@H]3CSSC[C@H](NC(=O)[C@H](C(C)C)NC1=O)C(=O)N[C@@H](CO)C(=O)N[C@@H](CCC(N)=O)C(=O)N[C@@H](Cc1c[nH]cn1)C(=O)N[C@@H](CCCCN)C(=O)N[C@@H](Cc1c[nH]c4ccccc14)C(=O)N[C@H](C(=O)N[C@@H](CCCCN)C(=O)N[C@@H](Cc1ccc(O)cc1)C(=O)O)CSSC[C@H](NC(=O)[C@H](CCCCN)NC(=O)[C@H](CC(=O)O)NC(=O)[C@H](CC(N)=O)NC3=O)C(=O)N2	SCN9A	ion current, inhibitor, patch clamp			8890
c1cn(Cc2ccc(-c3ccc4occc4c3)cc2)cn1	cyp121 (Mycobacterium tuberculosis, UniProt P9WPP7)	mycocyclosin formation, inhibitor, LC-MS/MS		together with: cYY 20 µM	23000
Cc1cc(-c2cnc3c(c2)c(O)c(-c2ccccc2)c(=O)n3O)ccc1F	Resolvase OPG149 (OPG149, Monkeypox virus, UniProt A0A7H0DNC1)	inhibitor			1400 ± 200
CCN1CCN(c2ccc(C)c(C(=O)NC3(c4ccc5c6c(cccc46)CC5)CC3)c2)CC1C (stereo not shown)	Replicase polyprotein 1a papain-like protease	enzyme activity, inhibitor			14.6
COc1cccc2[nH]c(C(=O)NC(CC(C)C)C(=O)NC(CC3CCCNC3=O)C(=O)COC(=O)c3c(C)cc(C)nc3C)cc12 (stereo not shown)	Procathepsin L (CTSL, Homo sapiens, UniProt P07711)	enzyme activity, inhibitor		pH 5, with preincubation	0.17
CC[C@H](C)[C@@H]1NC(=O)[C@@H]2CSSC[C@H](NC(=O)[C@H](CCCNC(=N)N)NC(=O)[C@@H]3CSSC[C@H](NC1=O)C(=O)N[C@@H]([C@@H](C)O)C(=O)N[C@@H](CCCNC(=N)N)C(=O)NCC(=O)N[C@@H](Cc1ccccc1)C(=O)N3)C(=O)N1CCC[C@H]1C(=O)N[C@H]1CSSC[C@H](NC(=O)CNC(=O)[C@H](Cc3ccc(O)cc3)NC(=O)[C@H](CCCNC(=N)N)NC(=O)[C@H](CO)NC1=O)C(=O)N[C@@H](Cc1c[nH]c3ccccc13)C(=O)N2	Lethal factor	enzyme activity, inhibitor			971 ± 60
CC(C)C[C@H](NC(=O)[C@H](CC(=O)O)NC(=O)[C@H](Cc1ccc(O)cc1)NC(=O)[C@H](C)NC(=O)[C@@H]1CSSC[C@@H]2NC(=O)[C@H](CCCCN)NC(=O)[C@H](CC(=O)O)NC(=O)[C@H](CC(N)=O)NC(=O)[C@H](CO)NC(=O)[C@@H]3CCCN3C(=O)[C@H](CC(N)=O)NC(=O)[C@@H]3CSSC[C@H](NC(=O)[C@H](C(C)C)NC(=O)[C@H](CC(C)C)NC(=O)[C@H](CO)NC(=O)[C@H](CO)NC(=O)[C@H](CO)NC(=O)[C@H](CCCCN)NC(=O)[C@H](CSSC[C@H](NC(=O)[C@H](C)N)C(=O)N[C@@H](CC(C)C)C(=O)NCC(=O)N[C@@H](Cc4ccccc4)C(=O)NCC(=O)N[C@@H](CCC(=O)O)C(=O)N[C@@H](CCCCN)C(=O)N3)NC2=O)C(=O)N[C@@H](CO)C(=O)N[C@@H](CCC(N)=O)C(=O)N[C@@H](CCCCN)C(=O)N[C@@H](Cc2c[nH]cn2)C(=O)N[C@@H](CCCCN)C(=O)N[C@@H](Cc2c[nH]c3ccccc23)C(=O)N1)C(=O)O	SCN9A	ion current, inhibitor, patch clamp			> 30000
Nc1ccc(Cl)cc1C(=O)OCC(COCP(=O)(O)OP(=O)(O)OP(=O)(O)O)Cn1cnc2c(N)ncnc21 (stereo not shown)	cya (Bacillus anthracis, UniProt P40136)				622 ± 124
C[n+]1cn(C2OC(COP(=O)(O)OP(=O)(O)OP(=O)(O)O)C(O)C2O)c2nc(N)[nH]c(=O)c21 (stereo not shown)	OPG122				3000
C1CCc2c(c(N3CCOCC3)nc3sc4c(NC5CCNCC5)nnnc4c23)C1	bglR				6000 ± 1000
CC[C@H](C)[C@@H]1NC(=O)[C@H](CCCNC(=N)N)NC(=O)[C@H](CO)NC(=O)[C@H](CCC(=O)O)NC(=O)[C@H](CC(=O)O)NC(=O)CNC(=O)CNC(=O)[C@H]([C@@H](C)O)NC(=O)[C@H](Cc2ccccc2)NC(=O)[C@H](CO)NC(=O)[C@H]([C@@H](C)O)NC(=O)[C@H](C)NC(=O)[C@@H]2CSSC[C@@H](C(=O)N[C@@H](Cc3ccc(O)cc3)C(=O)N[C@@H](Cc3ccccc3)C(=O)N[C@H](C(=O)N[C@H](C(=O)NCC(=O)O)[C@@H](C)O)[C@@H](C)O)NC(=O)[C@H]([C@@H](C)O)NC(=O)[C@H](CSSC[C@H](NC(=O)[C@H](CCC(=O)O)NC(=O)[C@H](CO)NC(=O)[C@H](CCCCN)NC(=O)[C@H](Cc3ccc(O)cc3)NC(=O)[C@@H]3CCCN3C(=O)[C@H](Cc3ccccc3)NC(=O)[C@H](CCCCN)NC(=O)[C@H](CCCNC(=N)N)NC(=O)[C@H](CCCCN)NC(=O)[C@H](CCCCN)NC(=O)[C@H](Cc3ccc(O)cc3)NC(=O)[C@@H]3CCCN3C(=O)[C@@H](NC(=O)[C@H](CC(=O)O)NC(=O)[C@H](CCCCN)NC(=O)[C@H](CCCCN)NC(=O)[C@@H](NC(=O)[C@@H](NC(=O)[C@@H](N)CCC(=O)O)C(C)C)[C@@H](C)CC)[C@@H](C)O)C(=O)N[C@@H](CC(C)C)C(=O)N[C@@H](CCCCN)C(=O)N[C@@H](C)C(=O)N2)NC(=O)[C@H](CCCCN)NC(=O)[C@H](Cc2ccccc2)NC(=O)[C@H](Cc2ccccc2)NC(=O)CNC(=O)[C@@H]2CCCN2C(=O)[C@H](CCCCN)NC(=O)CNC(=O)[C@H](CCC(=O)O)NC(=O)[C@H](CCC(N)=O)NC1=O	KCNQ4 (Homo sapiens, UniProt P56696)	ion current, inhibitor, patch clamp			2500
Nc1ncnc2c1ncn2C1CCC(COP(=O)(O)OP(=O)(O)OP(=O)(O)O)O1 (stereo not shown)	OPG122				166000
